Experimental data gathered from unrelated publications.
Every numbered part comes from another study and shows a few of its results, in no order.
Chain of UniProt P53355 (whole entry, looked up): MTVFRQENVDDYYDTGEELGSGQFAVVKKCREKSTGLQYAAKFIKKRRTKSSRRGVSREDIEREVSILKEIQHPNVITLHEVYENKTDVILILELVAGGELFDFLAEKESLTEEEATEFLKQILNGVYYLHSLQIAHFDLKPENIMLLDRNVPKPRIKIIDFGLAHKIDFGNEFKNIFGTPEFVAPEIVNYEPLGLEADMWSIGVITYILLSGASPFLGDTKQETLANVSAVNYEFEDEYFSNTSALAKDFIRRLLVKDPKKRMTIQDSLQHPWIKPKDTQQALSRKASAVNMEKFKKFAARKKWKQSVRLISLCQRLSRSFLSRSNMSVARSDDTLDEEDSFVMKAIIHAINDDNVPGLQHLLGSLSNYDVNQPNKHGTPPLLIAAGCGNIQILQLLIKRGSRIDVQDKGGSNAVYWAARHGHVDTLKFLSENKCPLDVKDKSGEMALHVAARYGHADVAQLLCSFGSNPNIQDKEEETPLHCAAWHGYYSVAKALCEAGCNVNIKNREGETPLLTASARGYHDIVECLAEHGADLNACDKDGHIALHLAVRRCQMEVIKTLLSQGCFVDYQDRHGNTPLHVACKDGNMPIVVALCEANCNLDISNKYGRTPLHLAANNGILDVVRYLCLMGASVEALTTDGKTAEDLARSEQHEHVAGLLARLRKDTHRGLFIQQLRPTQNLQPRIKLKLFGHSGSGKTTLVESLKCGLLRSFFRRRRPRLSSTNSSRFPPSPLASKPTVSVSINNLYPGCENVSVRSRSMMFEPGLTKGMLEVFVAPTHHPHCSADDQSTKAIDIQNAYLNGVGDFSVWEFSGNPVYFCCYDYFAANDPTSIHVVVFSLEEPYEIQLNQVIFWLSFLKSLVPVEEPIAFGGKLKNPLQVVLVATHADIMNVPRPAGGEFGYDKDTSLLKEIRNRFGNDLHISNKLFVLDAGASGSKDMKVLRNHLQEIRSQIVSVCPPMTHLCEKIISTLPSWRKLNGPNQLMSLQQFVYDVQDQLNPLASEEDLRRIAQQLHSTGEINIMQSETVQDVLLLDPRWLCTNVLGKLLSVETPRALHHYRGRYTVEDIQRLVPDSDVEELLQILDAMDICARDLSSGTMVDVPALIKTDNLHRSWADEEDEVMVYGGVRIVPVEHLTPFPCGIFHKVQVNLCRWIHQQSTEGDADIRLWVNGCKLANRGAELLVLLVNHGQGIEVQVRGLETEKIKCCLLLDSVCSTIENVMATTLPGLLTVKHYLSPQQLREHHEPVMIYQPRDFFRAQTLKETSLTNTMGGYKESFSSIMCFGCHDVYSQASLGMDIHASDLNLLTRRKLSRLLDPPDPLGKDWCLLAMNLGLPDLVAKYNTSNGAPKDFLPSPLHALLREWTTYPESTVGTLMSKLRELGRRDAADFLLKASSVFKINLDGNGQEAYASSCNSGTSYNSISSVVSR
Chain of UniProt O94804 (whole entry, looked up): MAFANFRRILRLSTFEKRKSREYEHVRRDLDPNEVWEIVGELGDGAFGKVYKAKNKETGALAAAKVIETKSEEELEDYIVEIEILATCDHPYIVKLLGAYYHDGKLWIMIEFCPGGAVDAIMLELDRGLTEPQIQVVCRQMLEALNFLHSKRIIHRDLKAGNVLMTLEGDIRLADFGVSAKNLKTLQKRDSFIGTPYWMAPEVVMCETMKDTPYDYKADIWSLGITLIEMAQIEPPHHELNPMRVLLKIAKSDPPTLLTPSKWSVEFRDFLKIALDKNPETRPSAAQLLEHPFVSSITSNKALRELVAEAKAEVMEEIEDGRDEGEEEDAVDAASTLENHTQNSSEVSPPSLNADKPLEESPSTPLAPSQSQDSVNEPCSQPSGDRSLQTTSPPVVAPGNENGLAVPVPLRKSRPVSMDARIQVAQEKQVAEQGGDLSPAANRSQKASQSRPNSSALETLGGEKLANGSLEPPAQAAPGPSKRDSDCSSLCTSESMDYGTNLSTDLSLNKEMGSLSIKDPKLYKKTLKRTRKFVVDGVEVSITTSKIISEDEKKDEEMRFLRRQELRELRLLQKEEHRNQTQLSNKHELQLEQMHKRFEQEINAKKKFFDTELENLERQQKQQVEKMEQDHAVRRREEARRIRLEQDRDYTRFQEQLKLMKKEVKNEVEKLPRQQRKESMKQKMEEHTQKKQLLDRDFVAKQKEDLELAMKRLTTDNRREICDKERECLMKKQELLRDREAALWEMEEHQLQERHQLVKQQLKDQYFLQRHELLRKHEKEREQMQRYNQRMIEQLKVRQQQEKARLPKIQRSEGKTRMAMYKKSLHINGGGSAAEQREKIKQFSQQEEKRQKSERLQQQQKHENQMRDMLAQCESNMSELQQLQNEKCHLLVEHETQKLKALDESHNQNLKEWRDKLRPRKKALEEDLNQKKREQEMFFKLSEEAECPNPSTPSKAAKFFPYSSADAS
Chain of UniProt Q9P1P5 (whole entry, looked up): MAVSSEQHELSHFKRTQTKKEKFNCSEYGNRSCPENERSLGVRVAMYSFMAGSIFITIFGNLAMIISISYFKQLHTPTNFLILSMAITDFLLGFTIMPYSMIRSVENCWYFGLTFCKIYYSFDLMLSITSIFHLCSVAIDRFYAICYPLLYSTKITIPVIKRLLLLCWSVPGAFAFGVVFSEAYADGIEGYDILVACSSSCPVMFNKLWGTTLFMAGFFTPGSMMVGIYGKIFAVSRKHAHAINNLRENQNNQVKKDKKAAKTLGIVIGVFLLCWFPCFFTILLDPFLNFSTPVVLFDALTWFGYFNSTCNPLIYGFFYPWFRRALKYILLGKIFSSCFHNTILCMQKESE
Chain of UniProt Q8NE63 (whole entry, looked up): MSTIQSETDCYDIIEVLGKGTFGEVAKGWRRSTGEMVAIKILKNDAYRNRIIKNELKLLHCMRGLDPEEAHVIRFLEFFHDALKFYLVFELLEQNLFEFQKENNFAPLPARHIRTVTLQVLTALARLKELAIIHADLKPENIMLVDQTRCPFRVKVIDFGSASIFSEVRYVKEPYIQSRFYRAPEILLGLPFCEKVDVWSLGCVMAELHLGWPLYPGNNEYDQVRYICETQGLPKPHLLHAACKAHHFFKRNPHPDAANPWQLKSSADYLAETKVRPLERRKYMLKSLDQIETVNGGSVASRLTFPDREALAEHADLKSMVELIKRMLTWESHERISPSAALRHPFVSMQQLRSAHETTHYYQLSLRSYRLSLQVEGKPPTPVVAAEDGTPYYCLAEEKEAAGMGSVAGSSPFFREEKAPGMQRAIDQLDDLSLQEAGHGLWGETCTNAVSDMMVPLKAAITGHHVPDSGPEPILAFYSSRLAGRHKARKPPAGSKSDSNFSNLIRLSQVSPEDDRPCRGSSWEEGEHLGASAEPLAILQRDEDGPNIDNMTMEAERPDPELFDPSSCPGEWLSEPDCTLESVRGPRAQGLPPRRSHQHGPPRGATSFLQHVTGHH
Chain of UniProt P45984 (whole entry, looked up): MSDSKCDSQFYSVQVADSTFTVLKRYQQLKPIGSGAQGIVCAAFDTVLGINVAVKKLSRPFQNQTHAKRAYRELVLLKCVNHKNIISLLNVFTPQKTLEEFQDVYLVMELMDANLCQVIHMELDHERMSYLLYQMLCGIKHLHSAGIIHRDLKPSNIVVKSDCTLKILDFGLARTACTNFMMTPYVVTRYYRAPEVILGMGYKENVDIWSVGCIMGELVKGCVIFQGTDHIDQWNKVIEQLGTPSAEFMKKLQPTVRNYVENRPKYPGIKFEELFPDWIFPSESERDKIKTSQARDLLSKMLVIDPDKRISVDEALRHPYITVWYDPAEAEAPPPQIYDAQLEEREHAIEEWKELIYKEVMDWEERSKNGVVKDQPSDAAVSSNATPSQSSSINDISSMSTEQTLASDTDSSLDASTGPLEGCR
Chain of UniProt P34995 (whole entry, looked up): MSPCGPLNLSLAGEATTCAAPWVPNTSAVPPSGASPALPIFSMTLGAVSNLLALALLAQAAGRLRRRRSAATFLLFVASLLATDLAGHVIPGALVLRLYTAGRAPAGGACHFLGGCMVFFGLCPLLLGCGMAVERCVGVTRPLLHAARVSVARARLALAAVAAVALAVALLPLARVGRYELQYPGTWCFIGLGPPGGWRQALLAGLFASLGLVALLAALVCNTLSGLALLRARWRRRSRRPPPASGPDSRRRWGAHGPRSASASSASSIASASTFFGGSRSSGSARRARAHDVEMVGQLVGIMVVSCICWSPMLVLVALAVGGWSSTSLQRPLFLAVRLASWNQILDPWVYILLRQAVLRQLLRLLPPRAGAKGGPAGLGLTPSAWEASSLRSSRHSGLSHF
Chain of UniProt Q13237 (whole entry, looked up): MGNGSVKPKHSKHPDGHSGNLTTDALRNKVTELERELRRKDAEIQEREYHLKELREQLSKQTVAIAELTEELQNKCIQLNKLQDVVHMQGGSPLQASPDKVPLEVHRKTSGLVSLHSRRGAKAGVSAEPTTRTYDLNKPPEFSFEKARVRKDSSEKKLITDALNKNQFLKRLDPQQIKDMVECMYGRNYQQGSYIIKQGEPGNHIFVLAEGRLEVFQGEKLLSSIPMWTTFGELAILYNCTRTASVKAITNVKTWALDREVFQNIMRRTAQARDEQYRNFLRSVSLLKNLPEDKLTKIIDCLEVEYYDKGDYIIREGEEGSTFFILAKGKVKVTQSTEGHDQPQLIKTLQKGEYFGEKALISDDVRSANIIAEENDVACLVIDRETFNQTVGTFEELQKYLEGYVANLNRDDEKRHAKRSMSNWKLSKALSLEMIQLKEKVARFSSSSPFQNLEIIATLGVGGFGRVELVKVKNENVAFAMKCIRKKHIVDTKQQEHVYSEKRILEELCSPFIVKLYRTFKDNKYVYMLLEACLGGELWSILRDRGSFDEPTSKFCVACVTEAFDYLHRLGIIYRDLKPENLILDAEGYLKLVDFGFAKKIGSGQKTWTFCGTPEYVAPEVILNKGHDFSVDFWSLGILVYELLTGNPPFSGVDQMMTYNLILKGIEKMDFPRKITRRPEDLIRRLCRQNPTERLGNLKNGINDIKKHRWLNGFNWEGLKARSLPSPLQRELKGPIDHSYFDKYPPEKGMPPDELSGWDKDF

Sample 1 — Structure (SMILES): CCN(c1nc(N)c(C(=O)N=C(N)N)nc1Cl)C(C)C; mode: agonist; tested at: 10 µM; baseline: untreated
| target | test | fold over basal |
| --- | --- | --- |
| Somatostatin receptor type 5 (SSTR5, Homo sapiens, UniProt P35346) | β-arrestin recruitment, PRESTO-Tango | 0.52 fold |
| C-C chemokine receptor type 8 (CCR8, Homo sapiens, UniProt P51685) | β-arrestin recruitment, PRESTO-Tango | 0.93 |
| Thyrotropin-releasing hormone receptor (TRHR, Homo sapiens, UniProt P34981) | β-arrestin recruitment, PRESTO-Tango | 3.03 fold |
| Atypical chemokine receptor 3 (ACKR3, Homo sapiens, UniProt P25106) | β-arrestin recruitment, PRESTO-Tango | 7.95 |
| Prostaglandin E2 receptor EP1 subtype (PTGER1, Homo sapiens, UniProt P34995) | β-arrestin recruitment, PRESTO-Tango | 0.91 |
| Relaxin receptor 1 (RXFP1, Homo sapiens, UniProt Q9HBX9) | β-arrestin recruitment, PRESTO-Tango | 1.17 |
| Probable G-protein coupled receptor 148 (GPR148, Homo sapiens, UniProt Q8TDV2) | β-arrestin recruitment, PRESTO-Tango | 1.19 |
| GPR32 (Homo sapiens, UniProt O75388) | β-arrestin recruitment, PRESTO-Tango | 1.27 |
| G-protein coupled receptor 78 (GPR78, Homo sapiens, UniProt Q96P69) | β-arrestin recruitment, PRESTO-Tango | 0.92 |
| Thyrotropin receptor (TSHR, Homo sapiens, UniProt P16473) | β-arrestin recruitment, PRESTO-Tango | 1.07 fold |
| Nociceptin receptor (OPRL1, Homo sapiens, UniProt P41146) | PRESTO-Tango arrestin recruitment | 1.46 |
| Trace amine-associated receptor 2 (TAAR2, Homo sapiens, UniProt Q9P1P5) | β-arrestin recruitment, PRESTO-Tango | 0.68 fold |
| 5-hydroxytryptamine receptor 4 (HTR4, Homo sapiens, UniProt Q13639) | β-arrestin recruitment, PRESTO-Tango | 1.26 |

Sample 2 — observed: enzyme activity; mode: inhibitor; tested at: 1 µM
SMILES: CC(C)S(=O)(=O)c1ccc2nccc(Nc3ccc4sc(C5CCCC5)nc4c3)c2c1
| target | activity vs control |
| --- | --- |
| Serine/threonine-protein kinase BRSK2 (BRSK2, Homo sapiens, UniProt Q8IWQ3) | 100% |
| Ribosomal protein S6 kinase alpha-1 (RPS6KA1, Homo sapiens, UniProt Q15418) | 89.5% |
| Mitogen-activated protein kinase 8 (MAPK8, Homo sapiens, UniProt P45983) | 104% |
| Maternal embryonic leucine zipper kinase (MELK, Homo sapiens, UniProt Q14680) | 99% |
| Phosphatidylinositol 4,5-bisphosphate 3-kinase catalytic subunit gamma isoform (PIK3CG, Homo sapiens, UniProt P48736) | 83% |
| LIM domain kinase 2 (LIMK2, Homo sapiens, UniProt P53671) | 85% |
| Mitogen-activated protein kinase kinase kinase kinase 2 (MAP4K2, Homo sapiens, UniProt Q12851) | 93.5% |
| Death-associated protein kinase 1 (DAPK1, Homo sapiens, UniProt P53355) | 117% |

Sample 3 — Structure (SMILES): N#CC(=C(N)Sc1ccc(N)cc1)c1ccccc1C(F)(F)F; observed: enzyme activity; mode: inhibitor; tested at: 0.5 µM; baseline: control
| target | remaining activity [%] |
| --- | --- |
| Inhibitor of nuclear factor kappa-B kinase subunit epsilon (IKBKE, Homo sapiens, UniProt Q14164) | 102 |
| Serine/threonine-protein kinase Chk2 (CHEK2, Homo sapiens, UniProt O96017) | 97.7 |
| TGF-beta receptor type-2 (TGFBR2, Homo sapiens, UniProt P37173) | 113 |
| Serine/threonine-protein kinase Nek2 (NEK2, Homo sapiens, UniProt P51955) | 94.9 |
| Mitogen-activated protein kinase kinase kinase 3 (MAP3K3, Homo sapiens, UniProt Q99759) | 97.7 |
| Cyclin-dependent kinase 5, with p25 (CDK5, Homo sapiens, UniProt Q00535) | 93.1 |
| Calcium/calmodulin-dependent protein kinase type II subunit delta (CAMK2D, Homo sapiens, UniProt Q13557) | 93.4 |
| Cyclin-dependent kinase 4, with cyclin D1 (CDK4, Homo sapiens, UniProt P11802) | 106 |
| Protein kinase C beta type, isoform beta-I (PRKCB, Homo sapiens, UniProt P05771) | 93.1 |
| Mitogen-activated protein kinase 9 (MAPK9, Homo sapiens, UniProt P45984) | 110 |
| Death-associated protein kinase 2 (DAPK2, Homo sapiens, UniProt Q9UIK4) | 112 |
| TGF-beta receptor type-1 (TGFBR1, Homo sapiens, UniProt P36897) | 98.3 |
| cGMP-dependent protein kinase 1, isoform beta (PRKG1, Homo sapiens, UniProt Q13976) | 100 |
| Inhibitor of nuclear factor kappa-B kinase subunit beta (IKBKB, Homo sapiens, UniProt O14920) | 100 |
| Calcium/calmodulin-dependent protein kinase kinase 2 (CAMKK2, Homo sapiens, UniProt Q96RR4) | 85.5 |
| G protein-coupled receptor kinase 3 (GRK3, Homo sapiens, UniProt P35626) | 101 |
| Serine/threonine-protein kinase OSR1 (OXSR1, Homo sapiens, UniProt O95747) | 101 |
| cAMP-dependent protein kinase catalytic subunit alpha (PRKACA, Homo sapiens, UniProt P17612) | 109 |
| Protein kinase C alpha type (PRKCA, Homo sapiens, UniProt P17252) | 100 |
| STE20/SPS1-related proline-alanine-rich protein kinase (STK39, Homo sapiens, UniProt Q9UEW8) | 94.6 |
| Serine/threonine-protein kinase 10 (STK10, Homo sapiens, UniProt O94804) | 88.7 |
| Death-associated protein kinase 1 (DAPK1, Homo sapiens, UniProt P53355) | 104 |
| Serine/threonine-protein kinase STK11 (STK11, Homo sapiens, UniProt Q15831) | 102 |

Sample 4 — observed: cell-free assay; method: competition with immobilised ligand; tested at: 0.1 µM
Structure (SMILES): COCCOc1nc(-c2ccc(Cl)nc2)nc2c1CN(C(=O)c1ncn3ccccc13)CC2
| target | remaining binding [%] |
| --- | --- |
| Mitogen-activated protein kinase kinase kinase kinase 3 (MAP4K3, Homo sapiens, UniProt Q8IVH8) | 100 |
| Calcium/calmodulin-dependent protein kinase type 1D (CAMK1D, Homo sapiens, UniProt Q8IU85) | 100 |
| Ephrin type-B receptor 1 (EPHB1, Homo sapiens, UniProt P54762) | 100 |
| Serine/threonine-protein kinase SIK3 (SIK3, Homo sapiens, UniProt Q9Y2K2) | 100 |
| Misshapen-like kinase 1 (MINK1, Homo sapiens, UniProt Q8N4C8) | 100 |
| Mast/stem cell growth factor receptor Kit, autoinhibited (KIT, Homo sapiens, UniProt P10721) | 100 |
| Serine/threonine-protein kinase PRP4 homolog (PRPF4B, Homo sapiens, UniProt Q13523) | 100 |
| Serine/threonine-protein kinase 10 (STK10, Homo sapiens, UniProt O94804) | 100 |
| Dual specificity protein kinase CLK1 (CLK1, Homo sapiens, UniProt P49759) | 100 |
| Ribosomal protein S6 kinase alpha-6, N-terminal kinase domain (RPS6KA6, Homo sapiens, UniProt Q9UK32) | 100 |
| Proto-oncogene tyrosine-protein kinase receptor Ret (RET, Homo sapiens, UniProt P07949, V804L) | 100 |
| Activin receptor type-2A (ACVR2A, Homo sapiens, UniProt P27037) | 98 |
| Protein-tyrosine kinase 6 (PTK6, Homo sapiens, UniProt Q13882) | 100 |
| Homeodomain-interacting protein kinase 4 (HIPK4, Homo sapiens, UniProt Q8NE63) | 83 |
| Serine/threonine-protein kinase WNK3 (WNK3, Homo sapiens, UniProt Q9BYP7) | 100 |
| Epidermal growth factor receptor (EGFR, Homo sapiens, UniProt P00533, L858R/T790M) | 100 |
| Myosin light chain kinase family member 4 (MYLK4, Homo sapiens, UniProt Q86YV6) | 100 |
| Inhibitor of nuclear factor kappa-B kinase subunit alpha (CHUK, Homo sapiens, UniProt O15111) | 100 |
| Ephrin type-A receptor 3 (EPHA3, Homo sapiens, UniProt P29320) | 96 |
| Mitogen-activated protein kinase 13 (MAPK13, Homo sapiens, UniProt O15264) | 100 |
| cGMP-dependent protein kinase 2 (PRKG2, Homo sapiens, UniProt Q13237) | 100 |
| Serine/threonine-protein kinase PAK 2 (PAK2, Homo sapiens, UniProt Q13177) | 100 |
| Leucine-rich repeat serine/threonine-protein kinase 2 (LRRK2, Homo sapiens, UniProt Q5S007, G2019S) | 100 |
| Serine/threonine-protein kinase PAK 4 (PAK4, Homo sapiens, UniProt O96013) | 100 |
| Activin receptor type-2B (ACVR2B, Homo sapiens, UniProt Q13705) | 93 |

A few entries again (sample 3):
| target | remaining activity [%] |
| --- | --- |
| Calcium/calmodulin-dependent protein kinase type II subunit delta (CAMK2D, Homo sapiens, UniProt Q13557) | 93.4 |
| Cyclin-dependent kinase 4, with cyclin D1 (CDK4, Homo sapiens, UniProt P11802) | 106 |
| Protein kinase C beta type, isoform beta-I (PRKCB, Homo sapiens, UniProt P05771) | 93.1 |
| Mitogen-activated protein kinase 9 (MAPK9, Homo sapiens, UniProt P45984) | 110 |
| Death-associated protein kinase 2 (DAPK2, Homo sapiens, UniProt Q9UIK4) | 112 |
| TGF-beta receptor type-1 (TGFBR1, Homo sapiens, UniProt P36897) | 98.3 |
| cGMP-dependent protein kinase 1, isoform beta (PRKG1, Homo sapiens, UniProt Q13976) | 100 |
| Inhibitor of nuclear factor kappa-B kinase subunit beta (IKBKB, Homo sapiens, UniProt O14920) | 100 |
| Calcium/calmodulin-dependent protein kinase kinase 2 (CAMKK2, Homo sapiens, UniProt Q96RR4) | 85.5 |
| G protein-coupled receptor kinase 3 (GRK3, Homo sapiens, UniProt P35626) | 101 |
